{"data": "Results from different studies", "cell line": "EKVX", "note": "Compare with care: the assays were run in different laboratories. Several values in a cell are separate wells, animals, samples, runs or records."}
{"Compound": "O=C(Nc1nnc2[nH]c(=S)[nH]c(-c3ccc(Cl)cc3)c1-2)c1ccccc1", "test": "SRB", "setting": "10 µM, NCI60 single-dose screen", "how to read": "relative to: untreated", "endpoint": "cell growth", "result": "92.7%"}
{"Compound": "CCCN1CCN(c2ccc3nc(-c4ccc5nc(-c6cc(OC)ccc6OC)[nH]c5c4)[nH]c3c2)CC1", "test": "SRB", "setting": "10 µM, 48 h", "endpoint": "growth percent", "result": "96.7%"}
{"Compound": "O=C(Nc1nnc2n3c(nc(-c4ccc(Cl)cc4)c1-2)SCC3=O)c1ccccc1", "test": "SRB", "setting": "10 µM, NCI60 single-dose screen", "how to read": "relative to: untreated", "endpoint": "cell growth", "result": "89%"}
{"Compound": "Cn1cncc1C1=CN(c2ncnc3[nH]cnc23)CCS1", "setting": "lung cancer", "endpoint": "TGI", "result": "126 µM"}
{"Compound": "Cc1cc(=O)[nH]c(=O)n1Cc1cn(-c2cc3ccccc3oc2=O)nn1", "test": "NCI60 single-dose screen", "setting": "10 µM", "endpoint": "growth percentage", "result": "98.5%"}
{"Compound": "CCCCCCCCCCCCCCCCCCOc1ccc(CC(=O)OCC[N+](C)(C)C)cc1", "test": "SRB", "setting": "10 µM", "endpoint": "growth inhibition", "result": "< 0%"}
{"Compound": "CSc1nc(-c2ccc(Cl)cc2)c2c(NC(=O)c3ccccc3)nnc-2[nH]1", "test": "SRB", "setting": "10 µM, NCI60 single-dose screen", "how to read": "relative to: untreated", "endpoint": "cell growth", "result": "93.3%"}
{"Compound": "CCCCN1CCN(c2ccc3[nH]c(-c4ccc5[nH]c(-c6cc(OC)c(OC)c(OC)c6)nc5c4)nc3c2)CC1", "test": "SRB", "setting": "10 µM, 48 h", "endpoint": "growth percent", "result": "106%"}
{"Compound": "S=C([S][Au-][P+](CCCCCC[P+]([Au-][S]C(=S)n1cccn1)(c1ccccc1)c1ccccc1)(c1ccccc1)c1ccccc1)n1cccn1", "test": "cell growth, NCI-60 screen", "setting": "non-small cell lung cancer", "endpoint": "log10 TGI", "result": "> -4"}
{"Compound": "CCN(CC)c1ccc(C=NNC(=O)CSc2nc3ccccc3c(=O)n2Cc2ccc(S(N)(=O)=O)cc2)c(O)c1", "test": "NCI five-dose screen", "endpoint": "TGI", "result": "> 100 µM"}
{"Compound": "CCCN1CCN(c2ccc3[nH]c(-c4ccc5[nH]c(-c6cc(OC)c(OC)c(OC)c6)nc5c4)nc3c2)CC1", "test": "SRB", "setting": "10 µM, 48 h", "endpoint": "growth percent", "result": "109%"}
{"Compound": "O=c1ccn(Cc2cn(-c3cc4ccccc4oc3=O)nn2)c(=O)[nH]1", "test": "NCI60 single-dose screen", "setting": "10 µM", "endpoint": "growth percentage", "result": "102%"}
{"Compound": "O=C(Nc1nnc2n3c(Cc4ccccc4)n[nH]c3nc(-c3ccc(Cl)cc3)c1-2)c1ccccc1", "test": "SRB", "setting": "10 µM, NCI60 single-dose screen", "how to read": "relative to: untreated", "endpoint": "cell growth", "result": "95%"}
{"Compound": "CCCC(CCC)C(=O)OCc1cn(-c2c3ccccc3nc3ccccc23)nn1", "test": "NCI60 single-dose screen", "setting": "10 µM", "endpoint": "growth percentage", "result": "101%"}
{"Compound": "CCCCN1CCN(c2ccc3[nH]c(-c4ccc5[nH]c(-c6ccc(C(F)(F)F)cc6)nc5c4)nc3c2)CC1", "test": "SRB", "setting": "10 µM, 48 h", "endpoint": "growth percent", "result": "-72.4%"}
{"Compound": "C#C[C@@]1(O)[C@@H](CO)O[C@@H](n2ccc3c(N)ncnc32)[C@@H]1O", "test": "SRB", "setting": "NCI-60 screen", "endpoint": "TGI", "result": "5.43 µM"}
{"Compound": "NNc1nc(-c2ccc(Cl)cc2)c2c(NC(=O)c3ccccc3)nnc-2[nH]1", "test": "SRB", "setting": "10 µM, NCI60 single-dose screen", "how to read": "relative to: untreated", "endpoint": "cell growth", "result": "104%"}
{"Compound": "CN1CCN(c2ccc3[nH]c(-c4ccc5[nH]c(-c6ccc(C(F)(F)F)cc6)nc5c4)nc3c2)CC1", "test": "SRB", "setting": "10 µM, 48 h", "endpoint": "growth percent", "result": "81.6%"}
{"Compound": "O=c1ccn(Cc2cn(-c3c4ccccc4nc4ccccc34)nn2)c(=O)[nH]1", "test": "NCI60 single-dose screen", "setting": "10 µM", "endpoint": "growth percentage", "result": "103%"}
{"Compound": "CCCN1CCN(c2ccc3[nH]c(-c4ccc5[nH]c(-c6ccc(C(F)(F)F)cc6)nc5c4)nc3c2)CC1", "test": "SRB", "setting": "10 µM, 48 h", "endpoint": "growth percent", "result": "-34.3%"}
{"Compound": "CCCCCCCCCCCCCCCCCCOc1cccc(CC(=O)OCC[N+]2(C)CCOCC2)c1", "test": "SRB", "setting": "10 µM", "endpoint": "growth inhibition", "result": "< 0%"}
{"Compound": "C#C[C@@]1(O)[C@@H](CO)O[C@@H](n2cc(I)c3c(N)ncnc32)[C@@H]1O", "test": "SRB", "setting": "NCI-60 screen", "endpoint": "TGI", "result": "4.04 µM and 7.14 µM"}
{"note": "A few entries again:"}
{"Compound": "Cn1cncc1C1=CN(c2ncnc3[nH]cnc23)CCS1", "setting": "lung cancer", "endpoint": "TGI", "result": "126 µM"}
{"Compound": "Cc1cc(=O)[nH]c(=O)n1Cc1cn(-c2cc3ccccc3oc2=O)nn1", "test": "NCI60 single-dose screen", "setting": "10 µM", "endpoint": "growth percentage", "result": "98.5%"}
{"Compound": "CCCCCCCCCCCCCCCCCCOc1ccc(CC(=O)OCC[N+](C)(C)C)cc1", "test": "SRB", "setting": "10 µM", "endpoint": "growth inhibition", "result": "< 0%"}
